Assay results of several laboratories.
Parts stem from different laboratories: compare values within a part only.
Chain of UniProt Q99558 (whole entry, looked up): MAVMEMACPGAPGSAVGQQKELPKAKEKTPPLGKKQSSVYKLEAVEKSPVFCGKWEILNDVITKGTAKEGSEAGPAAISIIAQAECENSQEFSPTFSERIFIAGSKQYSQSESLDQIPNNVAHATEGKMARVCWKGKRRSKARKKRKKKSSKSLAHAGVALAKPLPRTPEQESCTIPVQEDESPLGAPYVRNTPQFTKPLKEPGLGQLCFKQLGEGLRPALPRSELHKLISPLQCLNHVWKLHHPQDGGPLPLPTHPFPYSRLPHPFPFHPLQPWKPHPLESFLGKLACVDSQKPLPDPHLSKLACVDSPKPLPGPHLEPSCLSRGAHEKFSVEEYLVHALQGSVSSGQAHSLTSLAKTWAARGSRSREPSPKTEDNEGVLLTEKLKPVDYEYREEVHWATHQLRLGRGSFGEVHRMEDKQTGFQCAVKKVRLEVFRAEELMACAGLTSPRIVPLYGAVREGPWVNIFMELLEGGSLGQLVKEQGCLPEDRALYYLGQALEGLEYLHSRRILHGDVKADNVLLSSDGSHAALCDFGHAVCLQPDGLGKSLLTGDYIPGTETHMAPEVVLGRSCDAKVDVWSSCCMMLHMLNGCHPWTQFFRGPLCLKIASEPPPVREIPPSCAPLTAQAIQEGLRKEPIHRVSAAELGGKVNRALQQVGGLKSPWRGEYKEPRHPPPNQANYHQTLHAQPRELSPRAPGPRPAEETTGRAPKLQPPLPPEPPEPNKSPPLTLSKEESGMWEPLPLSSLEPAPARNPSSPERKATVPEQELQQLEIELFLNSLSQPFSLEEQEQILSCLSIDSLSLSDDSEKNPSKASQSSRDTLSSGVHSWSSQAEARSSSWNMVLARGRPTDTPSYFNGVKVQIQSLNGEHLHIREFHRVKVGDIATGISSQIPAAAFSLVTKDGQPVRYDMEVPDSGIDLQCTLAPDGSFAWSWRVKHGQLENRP
Chain of UniProt P21802 (whole entry, looked up): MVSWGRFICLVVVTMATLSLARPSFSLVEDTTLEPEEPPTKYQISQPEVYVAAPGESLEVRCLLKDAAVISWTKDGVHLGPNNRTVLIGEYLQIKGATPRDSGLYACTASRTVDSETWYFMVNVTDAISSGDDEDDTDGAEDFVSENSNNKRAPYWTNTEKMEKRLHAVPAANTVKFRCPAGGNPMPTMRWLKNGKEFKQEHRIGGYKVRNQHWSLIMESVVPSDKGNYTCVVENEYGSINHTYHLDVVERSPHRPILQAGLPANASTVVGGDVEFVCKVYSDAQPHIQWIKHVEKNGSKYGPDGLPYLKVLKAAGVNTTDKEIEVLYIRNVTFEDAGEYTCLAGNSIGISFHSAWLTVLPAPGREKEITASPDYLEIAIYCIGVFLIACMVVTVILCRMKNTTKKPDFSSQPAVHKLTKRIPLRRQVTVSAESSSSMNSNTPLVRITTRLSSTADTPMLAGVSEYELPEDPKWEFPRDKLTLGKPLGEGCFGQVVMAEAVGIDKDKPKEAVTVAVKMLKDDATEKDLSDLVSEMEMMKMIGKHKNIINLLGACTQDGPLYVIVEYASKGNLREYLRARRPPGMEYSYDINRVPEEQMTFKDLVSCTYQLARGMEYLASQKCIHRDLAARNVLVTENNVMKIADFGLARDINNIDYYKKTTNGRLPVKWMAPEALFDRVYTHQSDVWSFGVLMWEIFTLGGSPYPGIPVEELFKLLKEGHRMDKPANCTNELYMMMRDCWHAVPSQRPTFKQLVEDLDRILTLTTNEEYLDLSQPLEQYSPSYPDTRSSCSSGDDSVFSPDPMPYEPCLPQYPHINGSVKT
Chain of UniProt Q9NRH2 (whole entry, looked up): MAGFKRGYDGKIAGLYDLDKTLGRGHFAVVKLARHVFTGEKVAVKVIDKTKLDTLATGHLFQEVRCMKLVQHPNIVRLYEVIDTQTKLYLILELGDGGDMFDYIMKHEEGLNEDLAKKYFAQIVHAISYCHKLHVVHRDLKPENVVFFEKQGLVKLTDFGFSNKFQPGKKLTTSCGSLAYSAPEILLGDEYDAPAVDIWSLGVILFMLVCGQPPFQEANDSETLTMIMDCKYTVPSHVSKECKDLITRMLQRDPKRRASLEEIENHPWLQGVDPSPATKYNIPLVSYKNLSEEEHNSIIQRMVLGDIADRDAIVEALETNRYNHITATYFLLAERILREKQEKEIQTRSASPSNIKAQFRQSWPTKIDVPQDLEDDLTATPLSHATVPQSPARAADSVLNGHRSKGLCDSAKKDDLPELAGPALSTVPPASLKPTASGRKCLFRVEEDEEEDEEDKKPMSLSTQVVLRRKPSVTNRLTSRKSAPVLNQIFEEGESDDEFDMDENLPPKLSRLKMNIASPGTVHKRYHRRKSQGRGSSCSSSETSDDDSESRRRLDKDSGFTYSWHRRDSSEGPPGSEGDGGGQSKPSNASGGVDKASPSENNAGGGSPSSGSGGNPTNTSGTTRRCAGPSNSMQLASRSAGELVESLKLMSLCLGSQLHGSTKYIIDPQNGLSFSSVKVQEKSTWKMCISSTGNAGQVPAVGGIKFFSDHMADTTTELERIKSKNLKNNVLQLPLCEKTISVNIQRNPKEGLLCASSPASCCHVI
Chain of UniProt Q16584 (whole entry, looked up): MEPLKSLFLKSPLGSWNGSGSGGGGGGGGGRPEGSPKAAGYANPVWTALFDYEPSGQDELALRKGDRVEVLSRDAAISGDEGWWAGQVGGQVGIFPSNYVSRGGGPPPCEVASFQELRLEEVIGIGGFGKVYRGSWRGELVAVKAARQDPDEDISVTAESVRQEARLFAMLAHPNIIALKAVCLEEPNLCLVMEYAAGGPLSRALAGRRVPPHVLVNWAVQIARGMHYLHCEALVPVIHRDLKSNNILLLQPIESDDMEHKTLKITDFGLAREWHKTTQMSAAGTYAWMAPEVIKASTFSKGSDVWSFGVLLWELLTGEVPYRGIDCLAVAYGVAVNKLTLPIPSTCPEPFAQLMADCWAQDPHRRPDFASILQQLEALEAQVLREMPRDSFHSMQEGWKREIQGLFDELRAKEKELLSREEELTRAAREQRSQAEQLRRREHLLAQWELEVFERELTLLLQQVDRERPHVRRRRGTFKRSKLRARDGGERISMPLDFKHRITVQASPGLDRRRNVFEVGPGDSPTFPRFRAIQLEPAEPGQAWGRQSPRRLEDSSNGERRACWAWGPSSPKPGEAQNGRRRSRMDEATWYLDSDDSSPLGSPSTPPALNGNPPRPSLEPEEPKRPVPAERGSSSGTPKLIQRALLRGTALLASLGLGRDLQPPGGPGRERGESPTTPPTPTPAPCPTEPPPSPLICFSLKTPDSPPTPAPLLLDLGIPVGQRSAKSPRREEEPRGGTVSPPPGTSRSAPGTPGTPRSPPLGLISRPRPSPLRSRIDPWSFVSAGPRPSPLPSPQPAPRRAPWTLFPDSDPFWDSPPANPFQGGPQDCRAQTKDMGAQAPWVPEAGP
Chain of UniProt P48729 (whole entry, looked up): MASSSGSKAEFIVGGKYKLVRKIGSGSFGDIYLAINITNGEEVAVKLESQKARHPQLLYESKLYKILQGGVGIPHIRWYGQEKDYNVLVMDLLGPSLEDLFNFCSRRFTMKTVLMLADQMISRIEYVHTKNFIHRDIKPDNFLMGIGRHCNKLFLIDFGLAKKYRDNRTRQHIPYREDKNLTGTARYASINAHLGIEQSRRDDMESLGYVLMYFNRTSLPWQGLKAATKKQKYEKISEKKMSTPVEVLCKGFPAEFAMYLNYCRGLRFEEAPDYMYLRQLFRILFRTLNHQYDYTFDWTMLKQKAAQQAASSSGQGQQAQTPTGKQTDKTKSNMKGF
Chain of UniProt Q96BR1 (whole entry, looked up): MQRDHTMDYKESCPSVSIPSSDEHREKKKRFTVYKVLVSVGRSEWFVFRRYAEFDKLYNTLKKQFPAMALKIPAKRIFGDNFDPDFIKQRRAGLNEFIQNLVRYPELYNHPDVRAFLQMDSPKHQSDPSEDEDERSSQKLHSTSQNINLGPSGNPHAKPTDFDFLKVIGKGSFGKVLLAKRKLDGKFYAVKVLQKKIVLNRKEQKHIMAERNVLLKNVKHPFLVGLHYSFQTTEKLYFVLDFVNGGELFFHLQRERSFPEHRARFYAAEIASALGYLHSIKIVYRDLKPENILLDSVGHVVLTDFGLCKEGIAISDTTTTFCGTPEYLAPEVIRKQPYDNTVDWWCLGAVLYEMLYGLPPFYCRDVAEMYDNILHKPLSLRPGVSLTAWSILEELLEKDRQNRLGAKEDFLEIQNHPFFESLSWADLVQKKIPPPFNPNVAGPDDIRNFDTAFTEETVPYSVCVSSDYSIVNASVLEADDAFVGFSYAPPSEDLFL

Sample 1
Organism: Plasmodium berghei
Action: inhibitor
Cells: Huh-7
Strain: GFP-expressing sporozoites, liver stage
Concentration: 10 µM
Time: 24 h
Baseline: untreated control
Structure (SMILES)	infection rate [%]
CN1CCN(C(c2ccccc2)c2ccccc2)CC1	105
C=CCSCC1Nc2cc(Cl)c(S(N)(=O)=O)cc2S(=O)(=O)N1 (stereo not drawn)	116
CCOC(=O)C1=C(COCCN)NC(C)=C(C(=O)OC)C1c1ccccc1Cl (stereo not drawn)	65.6

Sample 2
SMILES: O=S(=O)(NC1CCC(c2cc(F)ccc2F)(S(=O)(=O)c2ccc(Cl)cc2)CC1)C(F)(F)F (stereo not drawn)
Effect on: cell-free assay
Technique: competition with immobilised ligand
Concentration: 1 µM
target	remaining binding
KIT (Homo sapiens, UniProt P10721, A829P)	100%
BMX (Homo sapiens, UniProt P51813)	93%
HIPK1 (Homo sapiens, UniProt Q86Z02)	100%
Ribosomal protein S6 kinase alpha-4, C-terminal kinase domain (RPS6KA4, Homo sapiens, UniProt O75676)	100%
FGFR2 (Homo sapiens, UniProt P21802)	84%
YES1 (Homo sapiens, UniProt P07947)	89%
CAMK2A (Homo sapiens, UniProt Q9UQM7)	100%
Tyrosine-protein kinase ABL1, phosphorylated (ABL1, Homo sapiens, UniProt P00519, M351T)	100%
SGK3 (Homo sapiens, UniProt Q96BR1)	89%
TAOK1 (Homo sapiens, UniProt Q7L7X3)	100%
CSNK1A1 (Homo sapiens, UniProt P48729)	100%
MAP3K11 (Homo sapiens, UniProt Q16584)	100%
ROCK1 (Homo sapiens, UniProt Q13464)	84%
SNRK (Homo sapiens, UniProt Q9NRH2)	100%
MAP3K14 (Homo sapiens, UniProt Q99558)	82%

Sample 3
Host: mouse
Sample: microsomes or S9
Concentration: 2 µM
Time: 0.5 h
SMILES	remaining compound [%]
Cc1cc(C)n(-c2nc(CCNC(=O)CCn3ccc(=O)[nH]c3=O)cs2)n1	57.8
COc1cc(C2CCN(C(=O)OC(C)(C)C)CC2)ccc1Nc1ncc(Cl)c2[nH]c3c(S(=O)(=O)C(C)C)cccc3c12	62.4
COc1ccc(CNC(=O)c2oc3ccc4c(c3c2C)C=CC(C)(C)O4)cc1OC	25.2

Sample 4
Cell line: mouse MPNST tumor cells
Technique: high-content nuclear imaging
Item: cell number
Concentration: 10 µM
Time: 12 h
Setting: mean of 2 replicates
Baseline: plate mean
Direction: higher = more cells
SMILES	nuclei count [z-score]
CCCN1CCN(c2ccc(C(=O)NC3(C(=O)NCC#N)CCCCC3)cc2)CC1	-0.833
CCN(CC)S(=O)(=O)c1ccc(Cl)c(C(=O)Nc2ccc3nc(C)sc3c2)c1	0.715
CON(C)C(=O)[C@H](O)[C@H](Cc1ccccc1)NC(=O)c1cc2cc(Cl)ccc2[nH]1	0.25

Sample 5
Target: Beta-1 adrenergic receptor (ADRB1, Homo sapiens, UniProt P08588)
Chain of UniProt P08588 (whole entry, looked up): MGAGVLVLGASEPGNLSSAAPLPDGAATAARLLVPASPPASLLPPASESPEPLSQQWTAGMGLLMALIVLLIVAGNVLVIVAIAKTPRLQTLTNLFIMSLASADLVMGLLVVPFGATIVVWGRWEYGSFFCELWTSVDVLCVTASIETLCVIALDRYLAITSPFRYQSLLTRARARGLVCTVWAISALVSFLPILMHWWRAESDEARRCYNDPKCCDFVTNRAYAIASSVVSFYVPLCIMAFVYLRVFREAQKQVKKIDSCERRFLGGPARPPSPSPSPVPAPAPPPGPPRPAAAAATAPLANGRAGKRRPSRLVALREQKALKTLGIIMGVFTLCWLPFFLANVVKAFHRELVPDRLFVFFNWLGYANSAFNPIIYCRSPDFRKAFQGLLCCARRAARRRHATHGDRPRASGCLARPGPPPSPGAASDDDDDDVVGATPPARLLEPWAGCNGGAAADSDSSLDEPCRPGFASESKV
Action: agonist
SMILES	EC50 [µM]
N#C/C(=C\c1ccc(O)c(O)c1)c1nc2ccccc2[nH]1	≥ 100
c1ccc2nc(N3CCCC(COc4ccncc4)C3)ccc2c1 (stereo not drawn)	≥ 100
COc1cc(CNCc2ccc(C)c(F)c2F)ccc1OCC(O)CN1CCC(O)CC1 (stereo not drawn)	2.24

Sample 6
Organism: Sarcocystis neurona
Effect on: parasite growth
Concentration: 10 µM
Time: 96 h
Setting: first screen
Compound	inhibition [%]
COCCCC/C(=N\OCCN)c1ccc(C(F)(F)F)cc1	16.3
CCn1cc(C(=O)O)c(=O)c2cc(F)c(N3CCN(C)CC3)cc21	-8.3
Clc1ccc(COC(Cn2ccnc2)c2ccc(Cl)cc2Cl)cc1 (stereo not drawn)	-4.1
